Published values pooled from the literature.
Lines come from different studies, so protocols differ. ± gives the spread as reported.
Organism: Plasmodium yoelii

Compound	test	system	setting	how to read	endpoint	value
FC(F)(F)Oc1ccc(COC2=CC(c3ccc[nH]3)=N/C2=C\NC23CC4CC(CC(C4)C2)C3)cc1		CF1 mice	oral, 25 mg/kg daily for 4 days, day 5		parasitemia reduction	> 80%
CCOC1=CC(c2ccc[nH]2)=N/C1=C\c1cc(Cc2ccc(Cl)cc2)c(C)[nH]1.Cl		CF1 mice	oral, 10 mg/kg daily for 4 days, day 5	reference: vehicle	parasitaemia reduction	100%
O=c1c2c([nH]c3cc(Oc4ccc(OC(F)(F)F)cc4)c(F)cc13)CCCC2	antimalarial activity	CF1 mouse	oral, once daily for 4 days		ED50	1.8 mg/kg
Cc1nc2c(c(O)c1Cl)-c1ccc(Oc3cccc(C(F)(F)F)c3)cc1C2=O		17XL	384-well		IC50	116 ± 54 nM
O=c1c2ccc(OCc3ccc(OC(F)(F)F)cc3)cc2[nH]c2cc(Cl)cc(F)c12	antimalarial activity	CF1 mouse	oral, once daily for 4 days		ED50	0.16 mg/kg
Cc1[nH]c(C)c(-c2ccc(CCc3ccc(F)cc3F)cc2)c(=O)c1Cl		17XL	384-well		IC50	143 ± 113 nM
CCCOC1=CC(c2ccc[nH]2)=N/C1=C\NC12CC3CC(CC(C3)C1)C2		CF1 mice	oral, 25 mg/kg daily for 4 days, day 5		parasitemia reduction	> 80%
Cc1[nH]c(C)c(-c2ccc(OCc3ccc(OC(F)(F)F)cc3)nc2)c(=O)c1Cl		17XL	384-well		IC50	117 ± 22 nM
O=c1c2c([nH]c3cc(Oc4ccc(OC(F)(F)F)cc4)ccc13)CCCC2	antimalarial activity	CF1 mouse	oral, once daily for 4 days		ED50	2.9 mg/kg
COC1=CC(c2ccc[nH]2)=N/C1=C\c1[nH]c(Cc2ccc(OC(F)(F)F)cc2)cc1Cc1ccc(OC(F)(F)F)cc1	parasitaemia	mouse	4-day treatment, parasitaemia day 5		ED50	2.48 mg/kg/day
O=c1c2ccc(OCc3cccc(OC(F)(F)F)c3)cc2[nH]c2cc(Cl)cc(F)c12	antimalarial activity	CF1 mouse	oral, once daily for 4 days		ED50	0.1 mg/kg
CCOC1=CC(c2ccc[nH]2)=N/C1=C\c1cc(Cc2ccc(OC(F)(F)F)cc2)c(C)[nH]1.Cl		CF1 mice	oral, 10 mg/kg daily for 4 days, day 5	reference: vehicle	parasitaemia reduction	100%
Cc1[nH]c(C)c(-c2ccc(CCc3ccc(F)cc3F)cc2)c(=O)c1Br		17XL	384-well		IC50	49 ± 12 nM
CCC1=C(CC)/C(=C/c2[nH]c(Cc3ccc(Cl)cc3)cc2Cc2ccc(Cl)cc2)N=C1c1ccc[nH]1		CF1 mice	oral, 25 mg/kg daily for 4 days, day 5	reference: vehicle	parasitaemia reduction	100%
Cc1[nH]c(C)c(-c2ccc(Oc3ccc(F)cc3)cc2)c(=O)c1Cl		17XL	384-well		IC50	38 ± 23 nM
COC1=CC(c2ccc[nH]2)=N/C1=C\c1[nH]c(-c2ccccc2)cc1-c1ccccc1		CF1 mice	oral, 10 mg/kg daily for 4 days, day 5	reference: vehicle	parasitaemia reduction	100%
O=c1c2ccc(Oc3ccc(OC(F)(F)F)cc3)cc2[nH]c2ccc(F)c(Cl)c12	antimalarial activity	CF1 mouse	oral, once daily for 4 days		ED50	0.28 mg/kg
CSc1ccc(C=CC(=O)NC(=O)c2ccccc2O)cc1		17XL	384-well		IC50	283 ± 154 nM
COC1=CC(c2ccc[nH]2)=N/C1=C\c1cc(Cc2ccc(OC(F)(F)F)cc2)c(C)[nH]1.Cl	parasitaemia	mouse	4-day treatment, parasitaemia day 5		ED90	6.11 mg/kg/day
O=c1c2ccc(OCc3ccc(C(F)(F)F)cc3)cc2[nH]c2cc(Cl)cc(F)c12	antimalarial activity	CF1 mouse	oral, once daily for 4 days		ED50	0.38 mg/kg

A few entries again:
Compound	test	system	setting	how to read	endpoint	value
FC(F)(F)Oc1ccc(COC2=CC(c3ccc[nH]3)=N/C2=C\NC23CC4CC(CC(C4)C2)C3)cc1		CF1 mice	oral, 25 mg/kg daily for 4 days, day 5		parasitemia reduction	> 80%
COC1=CC(c2ccc[nH]2)=N/C1=C\c1[nH]c(Cc2ccc(OC(F)(F)F)cc2)cc1Cc1ccc(OC(F)(F)F)cc1	parasitaemia	mouse	4-day treatment, parasitaemia day 5		ED50	2.48 mg/kg/day
O=c1c2ccc(Oc3ccc(OC(F)(F)F)cc3)cc2[nH]c2ccc(F)c(Cl)c12	antimalarial activity	CF1 mouse	oral, once daily for 4 days		ED50	0.28 mg/kg
